Measurements of several laboratories.
Cell line: HOP-62
Method: SRB

COc1cc(CNC(=O)C[C@H](C)CCC=C(C)C)ccc1OCc1cn(-c2cccc(C(F)(F)F)c2)nn1 gave a growth percent of 88.8% (10 µM, 48 h).
The IC50 of Nn1c(SCC(=O)N2CCC(=C3c4ncccc4CCc4cc(Cl)cc(Br)c43)CC2)nnc1-c1ccccc1 is reported as 53 µM (cell growth or viability).
For COc1ccc(C2=Nn3c(NN=C4C(=O)N(Cc5ccccc5)c5ccc(Cl)cc54)nnc3SC2)cc1, the inhibition was 37% (cell growth or viability; 10 µM).
With COc1cc(CNC(=O)C[C@H](C)CCC=C(C)C)ccc1OCc1cn(-c2ccccc2F)nn1 the growth percent was 46.7% (10 µM, 48 h).
Clc1cc(Br)c2c(c1)CCc1cccnc1C2=C1CCNCC1 gave an IC50 of 27 µM (cell growth or viability).
With CC(=O)OC[C@H]1O[C@@H](Sc2sc(C(=O)c3ccc(C)cc3)c(N)c2-c2nc3ccccc3s2)[C@H](OC(C)=O)[C@@H](OC(C)=O)[C@H]1OC(C)=O the growth was 86.1% (10 µM, 48 h; relative to: untreated).
COc1cc(CNC(=O)C[C@H](C)CCC=C(C)C)ccc1O has a growth percent of 85.8% (10 µM, 48 h).
O=C(CN1CCC(c2noc3cc(F)ccc23)CC1)N1CCC(=C2c3ncccc3CCc3cc(Cl)cc(Br)c32)CC1 gave an IC50 of 120 µM (cell growth or viability).
CC(=O)OC[C@H]1O[C@@H](Sc2sc(C(=O)c3ccc(Br)cc3)c(N)c2-c2nc3ccccc3s2)[C@H](OC(C)=O)[C@@H](OC(C)=O)[C@@H]1OC(C)=O has a growth of 63.8% (10 µM, 48 h; relative to: untreated).
CC(Cc1ccc(Cl)cc1)=C(c1ccc(Cl)cc1)c1ccc(OCCN(C)C)cc1 gave a GI50 of 6.07 µM (cell growth or viability).
O=C(CNc1nnc(-c2ccccc2)s1)N1CCC(=C2c3ncccc3CCc3cc(Cl)cc(Br)c32)CC1 gave an IC50 of over 120 µM (cell growth or viability).
For CC/C=C\C/C=C\C/C=C\C/C=C\C/C=C\C/C=C\CCC(=O)Nc1ccn(C2OC(CO)C(O)C2(F)F)c(=O)n1 (stereo not drawn), the GI50 was 0.0186 µM (cell growth or viability).

A few entries again:
CC(Cc1ccc(Cl)cc1)=C(c1ccc(Cl)cc1)c1ccc(OCCN(C)C)cc1 gave a GI50 of 6.07 µM (cell growth or viability).
O=C(CNc1nnc(-c2ccccc2)s1)N1CCC(=C2c3ncccc3CCc3cc(Cl)cc(Br)c32)CC1 gave an IC50 of over 120 µM (cell growth or viability).
